# Published values from different studies.
# Each numbered part is a random draw from the data of one study; scales do not carry over between parts.
# UniProt P18825, sequence (whole entry, looked up): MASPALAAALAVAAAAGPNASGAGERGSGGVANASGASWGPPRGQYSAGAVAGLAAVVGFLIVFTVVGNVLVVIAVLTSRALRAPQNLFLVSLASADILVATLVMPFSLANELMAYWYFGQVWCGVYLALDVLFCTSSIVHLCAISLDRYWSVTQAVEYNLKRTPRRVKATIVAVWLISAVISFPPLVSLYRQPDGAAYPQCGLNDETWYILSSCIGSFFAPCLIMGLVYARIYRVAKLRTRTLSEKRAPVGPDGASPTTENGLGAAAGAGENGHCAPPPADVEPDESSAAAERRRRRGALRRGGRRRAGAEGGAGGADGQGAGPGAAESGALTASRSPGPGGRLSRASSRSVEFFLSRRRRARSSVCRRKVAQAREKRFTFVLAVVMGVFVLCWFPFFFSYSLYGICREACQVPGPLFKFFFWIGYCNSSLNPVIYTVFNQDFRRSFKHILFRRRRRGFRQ
# UniProt Q13043, sequence (whole entry, looked up): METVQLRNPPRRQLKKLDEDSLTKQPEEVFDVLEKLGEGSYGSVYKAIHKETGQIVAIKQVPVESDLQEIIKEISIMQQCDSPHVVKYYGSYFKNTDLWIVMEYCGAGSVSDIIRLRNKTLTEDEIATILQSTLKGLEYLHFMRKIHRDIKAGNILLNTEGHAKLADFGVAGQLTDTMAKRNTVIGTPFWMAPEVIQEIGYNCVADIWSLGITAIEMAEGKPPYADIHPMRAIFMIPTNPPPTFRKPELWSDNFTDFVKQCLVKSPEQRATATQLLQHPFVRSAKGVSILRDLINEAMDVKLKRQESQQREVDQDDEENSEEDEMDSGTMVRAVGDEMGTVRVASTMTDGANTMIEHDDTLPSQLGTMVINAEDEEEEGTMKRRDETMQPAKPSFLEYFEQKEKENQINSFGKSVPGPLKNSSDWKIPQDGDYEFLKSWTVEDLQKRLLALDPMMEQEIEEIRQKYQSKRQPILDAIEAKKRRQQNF
# UniProt P08173, sequence (whole entry, looked up): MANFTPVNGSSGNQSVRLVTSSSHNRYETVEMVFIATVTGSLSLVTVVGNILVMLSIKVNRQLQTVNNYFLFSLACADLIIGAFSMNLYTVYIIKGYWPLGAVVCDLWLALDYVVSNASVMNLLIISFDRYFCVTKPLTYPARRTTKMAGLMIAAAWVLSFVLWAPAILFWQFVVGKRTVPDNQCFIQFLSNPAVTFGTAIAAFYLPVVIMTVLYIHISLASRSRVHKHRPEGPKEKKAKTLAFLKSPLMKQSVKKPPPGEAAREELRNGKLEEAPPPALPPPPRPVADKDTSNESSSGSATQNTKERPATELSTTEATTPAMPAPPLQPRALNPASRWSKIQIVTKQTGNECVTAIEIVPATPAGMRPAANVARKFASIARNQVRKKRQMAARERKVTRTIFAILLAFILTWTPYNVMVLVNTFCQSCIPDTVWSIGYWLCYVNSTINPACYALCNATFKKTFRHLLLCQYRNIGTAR
# UniProt P35367, sequence (whole entry, looked up): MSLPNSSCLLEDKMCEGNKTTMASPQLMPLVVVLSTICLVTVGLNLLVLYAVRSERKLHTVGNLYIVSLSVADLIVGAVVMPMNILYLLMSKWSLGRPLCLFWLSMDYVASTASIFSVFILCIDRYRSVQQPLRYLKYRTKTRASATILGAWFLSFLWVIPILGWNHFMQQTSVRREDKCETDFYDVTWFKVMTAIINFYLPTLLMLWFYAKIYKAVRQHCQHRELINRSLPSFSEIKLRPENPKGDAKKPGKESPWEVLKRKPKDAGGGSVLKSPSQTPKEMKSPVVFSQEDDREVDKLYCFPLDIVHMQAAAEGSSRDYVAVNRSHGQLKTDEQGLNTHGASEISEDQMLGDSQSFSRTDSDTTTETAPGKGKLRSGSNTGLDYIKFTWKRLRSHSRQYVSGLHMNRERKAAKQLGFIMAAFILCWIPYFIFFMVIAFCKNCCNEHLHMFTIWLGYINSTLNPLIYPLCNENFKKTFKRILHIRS
# UniProt Q12866, sequence (whole entry, looked up): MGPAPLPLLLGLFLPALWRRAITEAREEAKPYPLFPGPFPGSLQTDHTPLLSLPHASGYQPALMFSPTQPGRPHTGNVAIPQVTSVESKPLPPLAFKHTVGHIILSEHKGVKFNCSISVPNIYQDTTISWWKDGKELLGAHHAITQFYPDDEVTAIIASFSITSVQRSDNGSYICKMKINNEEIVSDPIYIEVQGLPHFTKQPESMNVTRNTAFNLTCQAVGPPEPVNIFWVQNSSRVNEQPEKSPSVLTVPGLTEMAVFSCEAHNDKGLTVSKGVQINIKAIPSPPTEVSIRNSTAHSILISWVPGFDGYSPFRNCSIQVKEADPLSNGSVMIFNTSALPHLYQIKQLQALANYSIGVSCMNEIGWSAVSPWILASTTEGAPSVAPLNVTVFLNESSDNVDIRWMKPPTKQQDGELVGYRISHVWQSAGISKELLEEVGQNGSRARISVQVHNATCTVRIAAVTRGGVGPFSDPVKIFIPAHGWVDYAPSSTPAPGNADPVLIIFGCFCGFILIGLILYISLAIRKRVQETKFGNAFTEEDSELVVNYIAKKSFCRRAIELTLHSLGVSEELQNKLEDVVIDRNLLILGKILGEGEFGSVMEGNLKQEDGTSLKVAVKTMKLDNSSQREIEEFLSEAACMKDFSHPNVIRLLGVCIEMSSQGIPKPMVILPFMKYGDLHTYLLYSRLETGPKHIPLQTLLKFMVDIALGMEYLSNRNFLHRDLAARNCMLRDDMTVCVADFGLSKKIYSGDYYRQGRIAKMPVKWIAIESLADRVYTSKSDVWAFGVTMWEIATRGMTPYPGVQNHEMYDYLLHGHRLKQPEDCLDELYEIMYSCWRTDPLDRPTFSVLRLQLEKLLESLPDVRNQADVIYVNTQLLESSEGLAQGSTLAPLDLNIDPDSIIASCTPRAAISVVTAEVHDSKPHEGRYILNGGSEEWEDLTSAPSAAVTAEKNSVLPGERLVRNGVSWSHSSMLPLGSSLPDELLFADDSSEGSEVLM
# UniProt Q9H3N8, sequence (whole entry, looked up): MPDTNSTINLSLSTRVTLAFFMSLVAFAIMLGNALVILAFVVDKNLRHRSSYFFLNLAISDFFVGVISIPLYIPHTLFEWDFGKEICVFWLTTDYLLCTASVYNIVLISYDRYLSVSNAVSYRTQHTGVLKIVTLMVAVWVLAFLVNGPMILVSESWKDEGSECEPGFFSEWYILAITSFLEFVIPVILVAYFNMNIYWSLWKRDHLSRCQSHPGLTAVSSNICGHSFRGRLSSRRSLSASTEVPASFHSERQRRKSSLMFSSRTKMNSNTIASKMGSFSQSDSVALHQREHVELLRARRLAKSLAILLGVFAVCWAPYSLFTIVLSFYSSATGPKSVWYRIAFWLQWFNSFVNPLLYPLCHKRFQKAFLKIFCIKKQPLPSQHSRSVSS

# Series 1 — observed: RNA clamping; method: fluorescence polarization; concentration: concentration not given; added: FAM-labelled poly r(AG)8 RNA; reading: higher = more clamping
# Target: Eukaryotic initiation factor 4A-I (EIF4A1, Homo sapiens, UniProt P60842)
# UniProt P60842, sequence (whole entry, looked up): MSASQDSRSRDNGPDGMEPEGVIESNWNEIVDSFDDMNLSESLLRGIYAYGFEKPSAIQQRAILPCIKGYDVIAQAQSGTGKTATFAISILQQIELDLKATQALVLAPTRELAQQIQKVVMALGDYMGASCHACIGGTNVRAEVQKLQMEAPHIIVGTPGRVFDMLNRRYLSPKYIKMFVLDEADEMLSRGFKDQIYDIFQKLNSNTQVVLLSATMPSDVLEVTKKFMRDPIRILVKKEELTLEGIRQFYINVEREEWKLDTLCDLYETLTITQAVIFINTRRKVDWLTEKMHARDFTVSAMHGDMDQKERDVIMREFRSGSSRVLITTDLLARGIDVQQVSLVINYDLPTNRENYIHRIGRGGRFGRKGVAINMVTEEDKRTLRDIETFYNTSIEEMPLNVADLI
SMILES,fluorescence polarization change
COC(=O)[C@H]1C(=O)[C@@]2(NCc3nccn3C)c3c(OC)cc(OC)cc3O[C@@]2(c2ccc(OC)cc2)[C@@H]1c1ccccc1,-8.4 mP
COc1ccc([C@@]23Oc4cc(OC)cc(OC)c4[C@]2(O)[C@H](O)[C@H](C(=O)c2cc4ccccc4o2)[C@H]3c2ccccc2)cc1,6 mP
C#CCCCOC(=O)/C=C/Cn1c(-c2ccccc2)nc2c(c1=O)[C@@H](c1ccccc1)[C@]1(c3ccc(OC)cc3)Oc3cc(OC)cc(OC)c3[C@]21O,17.5 mP
CCCc1ccc(C(=O)[C@H]2[C@@H](O)[C@@]3(O)c4c(OC)cc(OC)cc4O[C@@]3(c3ccc(OC)cc3)[C@@H]2c2ccccc2)o1,3.3 mP
COc1ccc([C@]23Oc4cc(OC)cc(OC)c4[C@@]4(O[C@@H]5CCCN5C(=O)[C@@H]4[C@H]2c2ccccc2)[C@@H]3O)cc1,-12.8 mP
CNCCOc1ccc2c(c1)O[C@@]1(c3ccc(Cl)cc3)[C@H](c3ccccc3)C[C@H](O)[C@@]21O,114 mP
COC(=O)[C@@H]1[C@@H](c2ccccc2)[C@]2(c3ccc(OC)cc3)Oc3cc(OC)cc(OC)c3[C@@]23OC(c2cccc(OC)c2)=N[C@@]13O,-0.1 mP
COc1ccc([C@@]23Oc4cc(OC)cc(OC)c4[C@]2(O)C=C(C(=O)c2ccco2)[C@H]3c2ccccc2)cc1,23.9 mP
C=CCn1c(-c2ccccc2)nc2c(c1=O)[C@@H](c1ccccc1)[C@]1(c3ccc(OC)cc3)Oc3cc(OC)cc(OC)c3[C@]21O,22.4 mP
CONC(=O)[C@H]1[C@@H](O)[C@@]2(O)c3c(OC)cc(F)cc3O[C@@]2(c2ccc(Br)cc2)[C@@H]1c1ccccc1,80.4 mP
COc1ccc([C@@]23Oc4cc(OC)cc(OC)c4[C@]2(O)[C@H](O)[C@H](CO)[C@H]3c2ccccc2)cc1,51.2 mP
CCCN[C@@]12C(=O)[C@H](C(=O)N(C)C)[C@@H](c3ccccc3)[C@]1(c1ccc(OC)cc1)Oc1cc(OC)cc(OC)c12,-8.9 mP
COC(=O)[C@@H]1[C@@H](c2ccccc2)[C@]2(c3ccc(OC)cc3)Oc3cc(OC)cc(OC)c3[C@@]23NC(C(C)C)=N[C@@]13O,72.9 mP
COC(=O)[C@H]1C(=O)[C@@]2(NCCCC(OC)OC)c3c(OC)cc(OC)cc3O[C@@]2(c2ccc(OC)cc2)[C@@H]1c1ccccc1,9.3 mP

# Series 2 — observed: enzyme activity; mode: inhibitor; concentration: 0.5 µM; reference: control
# Target: Receptor tyrosine-protein kinase erbB-4 (ERBB4, Homo sapiens, UniProt Q15303)
# UniProt Q15303, sequence (whole entry, looked up): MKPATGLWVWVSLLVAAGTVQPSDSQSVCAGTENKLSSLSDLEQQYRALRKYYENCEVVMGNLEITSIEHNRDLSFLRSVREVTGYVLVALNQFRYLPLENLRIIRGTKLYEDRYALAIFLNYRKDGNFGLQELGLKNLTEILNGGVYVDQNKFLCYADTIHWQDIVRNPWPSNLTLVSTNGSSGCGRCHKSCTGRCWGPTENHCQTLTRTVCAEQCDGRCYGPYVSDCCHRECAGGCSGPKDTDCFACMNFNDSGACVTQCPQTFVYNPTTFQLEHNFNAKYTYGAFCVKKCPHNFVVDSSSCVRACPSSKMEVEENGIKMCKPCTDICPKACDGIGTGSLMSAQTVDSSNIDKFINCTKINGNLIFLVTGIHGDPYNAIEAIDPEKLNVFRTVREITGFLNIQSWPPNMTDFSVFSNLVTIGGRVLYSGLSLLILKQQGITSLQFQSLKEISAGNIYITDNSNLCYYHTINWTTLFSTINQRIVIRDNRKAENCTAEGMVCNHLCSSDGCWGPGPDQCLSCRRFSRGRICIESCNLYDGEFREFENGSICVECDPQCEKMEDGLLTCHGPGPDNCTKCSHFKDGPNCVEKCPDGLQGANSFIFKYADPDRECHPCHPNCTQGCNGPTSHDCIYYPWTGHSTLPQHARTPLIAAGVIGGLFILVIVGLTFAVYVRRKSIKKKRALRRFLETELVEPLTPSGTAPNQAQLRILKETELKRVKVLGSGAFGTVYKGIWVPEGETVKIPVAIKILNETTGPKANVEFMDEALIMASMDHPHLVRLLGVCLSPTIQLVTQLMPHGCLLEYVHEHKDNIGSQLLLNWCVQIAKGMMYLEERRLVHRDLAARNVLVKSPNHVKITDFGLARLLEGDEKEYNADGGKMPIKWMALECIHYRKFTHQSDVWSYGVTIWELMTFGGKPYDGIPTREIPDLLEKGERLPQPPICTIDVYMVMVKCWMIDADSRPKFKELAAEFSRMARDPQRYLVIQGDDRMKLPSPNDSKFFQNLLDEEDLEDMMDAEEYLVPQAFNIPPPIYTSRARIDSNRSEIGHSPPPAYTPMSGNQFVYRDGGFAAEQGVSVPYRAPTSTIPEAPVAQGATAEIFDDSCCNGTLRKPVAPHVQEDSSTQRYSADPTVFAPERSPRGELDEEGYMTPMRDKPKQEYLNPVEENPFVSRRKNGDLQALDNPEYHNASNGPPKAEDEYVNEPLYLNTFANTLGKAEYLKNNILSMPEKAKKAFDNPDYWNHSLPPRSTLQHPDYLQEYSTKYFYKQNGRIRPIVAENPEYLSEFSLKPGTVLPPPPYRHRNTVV
Compound,remaining activity
Ic1cccc(CSc2nnc(-c3ccncc3)o2)c1,96.4%
COc1cc2ncnc(Nc3cccc(Cl)c3)c2cc1OC,35.5%
CCN(CC)C(=O)c1ccc(Nc2nc(OCC3CCCCC3)c3[nH]cnc3n2)cc1,91%
CN([C@@H](Cc1ccc(OS(=O)(=O)c2cccc3cnccc23)cc1)C(=O)N1CCN(c2ccccc2)CC1)S(=O)(=O)c1cccc2cnccc12,103%
Cc1cc2ncc(-c3ccccc3)nc2cc1C,96.4%
Nc1cccc(-c2cc3c(Oc4cccc(O)c4)ncnc3[nH]2)c1,75.8%
COc1cc2ncnc(Nc3ccc(O)c(Br)c3)c2cc1OC,29.1%
CCOc1nc(NC(=O)Cc2cc(OC)ccc2OC)cc(N)c1C#N,98.6%
Cc1cn(-c2cc(NC(=O)c3ccc(C)c(Nc4nccc(-c5cccnc5)n4)c3)cc(C(F)(F)F)c2)cn1,82.1%
c1ccc(-c2[nH]ncc2-c2ccnc3ccccc23)nc1,85.7%
C[C@@H]1CCN(C(=O)CC#N)C[C@@H]1N(C)c1ncnc2[nH]ccc12,100%
COc1cc2c(cc1OC)-c1[nH]nc(Nc3cccc(F)c3)c1C2,96.5%
O=C(Nc1cccc(Nc2nccc(Nc3cccc(C(F)(F)F)c3)n2)c1)C1CC1,103%
N#C/C(=C\c1ccc(O)c(O)c1)C(=O)NCc1ccccc1,80.9%
CN(C)C[C@H]1CCn2c(c(C3=C(c4cn(C)c5ccccc45)C(=O)NC3=O)c3ccccc32)C1,84.3%
Cn1nc2c3c(cccc31)C(=O)c1ccccc1-2,94.3%
N#Cc1c(NC(=O)c2cccc3ccccc23)sc2c1CCCC2,99.8%
Cc1nc2cc3nc(-c4cccs4)cnc3cc2n1C,95%
c1ccc(-c2cnc(Nc3ccc(OCCN4CCCC4)cc3)s2)cc1,101%
O=C1c2ccccc2-c2n[nH]c3cccc1c23,98.2%
O=C1C(Cl)=C(N2C(=O)CCC2=O)C(=O)c2ccccc21,110%
O=C(NC(NC(=S)Nc1ccc(F)c([N+](=O)[O-])c1)C(Cl)(Cl)Cl)C(c1ccccc1)c1ccccc1 (stereo not drawn),103%
O=c1cc(-c2cccc3c2Sc2ccccc2S3)oc(N2CCOCC2)c1,105%

# Series 3 — SMILES: O=C(Nc1ccccc1)Nc1cccc(Oc2ccc3nccn3n2)c1; concentration: 1 µM
target,assay,how to read,remaining binding
"Membrane-associated tyrosine- and threonine-specific cdc2-inhibitory kinase (PKMYT1, Homo sapiens, UniProt Q99640)",competitive binding panel,reference: vehicle,100%
"Mitogen-activated protein kinase kinase kinase 6 (MAP3K6, Homo sapiens, UniProt O95382)","competitive binding panel, refers to: ASK2",reference: vehicle,100%
"Serine/threonine-protein kinase 16 (STK16, Homo sapiens, UniProt O75716)",competitive binding panel,reference: vehicle,100%
"Tyrosine-protein kinase receptor Tie-1 (TIE1, Homo sapiens, UniProt P35590)",competitive binding panel,reference: vehicle,100%
"Epidermal growth factor receptor (EGFR, Homo sapiens, UniProt P00533, L858R/T790M)",competitive binding panel,reference: vehicle,100%
"Calcium/calmodulin-dependent protein kinase type 1G (CAMK1G, Homo sapiens, UniProt Q96NX5)",competitive binding panel,reference: vehicle,100%
"Tyrosine-protein kinase TXK (TXK, Homo sapiens, UniProt P42681)",competitive binding panel,reference: vehicle,100%
"Dual specificity protein kinase CLK3 (CLK3, Homo sapiens, UniProt P49761)",competitive binding panel,reference: vehicle,100%
"Epidermal growth factor receptor (EGFR, Homo sapiens, UniProt P00533, del746-750)",competitive binding panel,reference: vehicle,52%
"Epidermal growth factor receptor (EGFR, Homo sapiens, UniProt P00533, del752-759)",competitive binding panel,reference: vehicle,91%
"Phosphatidylinositol 4,5-bisphosphate 3-kinase catalytic subunit alpha isoform (PIK3CA, Homo sapiens, UniProt P42336, I800L)",competitive binding panel,reference: vehicle,100%
"Mitogen-activated protein kinase kinase kinase 3 (MAP3K3, Homo sapiens, UniProt Q99759)",competitive binding panel,reference: vehicle,100%
"Tyrosine-protein kinase Mer (MERTK, Homo sapiens, UniProt Q12866)",competitive binding panel,reference: vehicle,96%
"Serine/threonine-protein kinase 4 (STK4, Homo sapiens, UniProt Q13043)","competitive binding panel, refers to: MST1",reference: vehicle,100%
"Serine/threonine-protein kinase ICK (CILK1, Homo sapiens, UniProt Q9UPZ9)",competitive binding scan,,100%

# Series 4 — observed: cell-free assay; concentration: 10 µM
# Compound: Cc1c(C(=O)O)cc(-c2ccc(C3CCNCC3)cc2)c2ccc(-c3ccc(C(F)(F)F)cc3)cc12
target,inhibition [%]
"Histamine H3 receptor (HRH3, Homo sapiens, UniProt Q9Y5N1)",7.04
"Alpha-2B adrenergic receptor (ADRA2B, Homo sapiens, UniProt P18089)",79
"D(4) dopamine receptor (DRD4, Homo sapiens, UniProt P21917)",8.42
"Alpha-1D adrenergic receptor (ADRA1D, Homo sapiens, UniProt P25100)",13.3
"Muscarinic acetylcholine receptor M5 (CHRM5, Homo sapiens, UniProt P08912)",10.1
"Sigma intracellular receptor 2 (TMEM97, Homo sapiens, UniProt Q5BJF2)",92.7
"Histamine H1 receptor (HRH1, Homo sapiens, UniProt P35367)",12.6
"Histamine H2 receptor (HRH2, Homo sapiens, UniProt P25021)",9
"5-hydroxytryptamine receptor 7 (HTR7, Homo sapiens, UniProt P34969)",-3.66
"Sigma non-opioid intracellular receptor 1 (SIGMAR1, Homo sapiens, UniProt Q99720)",91.8
"Muscarinic acetylcholine receptor M2 (CHRM2, Homo sapiens, UniProt P08172)",19.3
"5-hydroxytryptamine receptor 6 (HTR6, Homo sapiens, UniProt P50406)",13.5
"5-hydroxytryptamine receptor 2B (HTR2B, Homo sapiens, UniProt P41595)",6.6
"Alpha-1B adrenergic receptor (ADRA1B, Homo sapiens, UniProt P35368)",57.4
"Muscarinic acetylcholine receptor M4 (CHRM4, Homo sapiens, UniProt P08173)",-5.54
"Alpha-1A adrenergic receptor (ADRA1A, Homo sapiens, UniProt P35348)",25.4
"D(3) dopamine receptor (DRD3, Homo sapiens, UniProt P35462)",46.7
"Beta-1 adrenergic receptor (ADRB1, Homo sapiens, UniProt P08588)",29.2
"Histamine H4 receptor (HRH4, Homo sapiens, UniProt Q9H3N8)",-4.71
"Alpha-2C adrenergic receptor (ADRA2C, Homo sapiens, UniProt P18825)",46.4

# A few entries again (series 1):
SMILES,fluorescence polarization change
COc1ccc([C@@]23Oc4cc(OC)cc(OC)c4[C@]2(O)[C@H](O)[C@H](C(=O)c2cc4ccccc4o2)[C@H]3c2ccccc2)cc1,6 mP
C#CCCCOC(=O)/C=C/Cn1c(-c2ccccc2)nc2c(c1=O)[C@@H](c1ccccc1)[C@]1(c3ccc(OC)cc3)Oc3cc(OC)cc(OC)c3[C@]21O,17.5 mP
CCCc1ccc(C(=O)[C@H]2[C@@H](O)[C@@]3(O)c4c(OC)cc(OC)cc4O[C@@]3(c3ccc(OC)cc3)[C@@H]2c2ccccc2)o1,3.3 mP
COc1ccc([C@]23Oc4cc(OC)cc(OC)c4[C@@]4(O[C@@H]5CCCN5C(=O)[C@@H]4[C@H]2c2ccccc2)[C@@H]3O)cc1,-12.8 mP
CNCCOc1ccc2c(c1)O[C@@]1(c3ccc(Cl)cc3)[C@H](c3ccccc3)C[C@H](O)[C@@]21O,114 mP
COC(=O)[C@@H]1[C@@H](c2ccccc2)[C@]2(c3ccc(OC)cc3)Oc3cc(OC)cc(OC)c3[C@@]23OC(c2cccc(OC)c2)=N[C@@]13O,-0.1 mP
